Measurements collected from several papers.
Numbered parts are unrelated; each lists some results of a single study. “And” joins repeats or separate records; there may be more than shown.
Sequence of UniProt P60842 (whole entry, looked up): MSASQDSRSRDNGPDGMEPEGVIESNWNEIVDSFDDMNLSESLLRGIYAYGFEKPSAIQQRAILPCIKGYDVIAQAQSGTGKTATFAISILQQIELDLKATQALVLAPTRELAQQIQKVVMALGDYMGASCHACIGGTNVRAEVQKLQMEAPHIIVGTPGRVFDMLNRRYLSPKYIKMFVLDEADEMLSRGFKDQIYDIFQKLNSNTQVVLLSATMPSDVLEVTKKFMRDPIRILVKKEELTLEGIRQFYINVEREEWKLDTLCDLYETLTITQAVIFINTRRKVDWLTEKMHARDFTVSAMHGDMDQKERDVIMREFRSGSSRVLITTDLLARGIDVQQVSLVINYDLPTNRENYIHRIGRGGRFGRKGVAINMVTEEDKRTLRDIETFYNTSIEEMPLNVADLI
Sequence of UniProt P15056 (whole entry, looked up): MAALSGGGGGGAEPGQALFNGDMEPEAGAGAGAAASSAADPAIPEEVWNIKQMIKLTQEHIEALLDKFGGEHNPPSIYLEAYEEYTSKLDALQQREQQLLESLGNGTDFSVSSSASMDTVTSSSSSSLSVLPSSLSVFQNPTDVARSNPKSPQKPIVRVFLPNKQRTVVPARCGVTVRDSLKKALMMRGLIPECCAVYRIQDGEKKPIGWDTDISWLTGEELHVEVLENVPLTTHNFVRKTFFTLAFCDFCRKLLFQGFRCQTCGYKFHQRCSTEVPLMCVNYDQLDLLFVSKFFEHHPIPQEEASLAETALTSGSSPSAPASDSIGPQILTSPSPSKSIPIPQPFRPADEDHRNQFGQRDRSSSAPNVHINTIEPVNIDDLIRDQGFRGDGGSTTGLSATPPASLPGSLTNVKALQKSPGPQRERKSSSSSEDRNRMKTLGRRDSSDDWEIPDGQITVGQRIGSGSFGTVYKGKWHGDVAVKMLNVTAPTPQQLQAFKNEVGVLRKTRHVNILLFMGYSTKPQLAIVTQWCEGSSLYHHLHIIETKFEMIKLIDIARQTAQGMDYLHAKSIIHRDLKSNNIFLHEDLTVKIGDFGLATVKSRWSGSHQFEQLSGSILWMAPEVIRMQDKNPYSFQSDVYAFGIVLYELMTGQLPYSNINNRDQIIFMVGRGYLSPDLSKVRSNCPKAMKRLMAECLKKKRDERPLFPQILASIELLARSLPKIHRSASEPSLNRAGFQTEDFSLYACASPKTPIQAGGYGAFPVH

Study 1
Compound: CC[C@@H](C)c1nc2cc(Nc3ccnc4ccc(S(=O)(=O)C(C)C)cc34)ccc2s1.Cl
Method: CCK-8
L929 RIPK3-/- reexpressing RIPK3 K51A/R69H; 6.25 µM — survival: 99.6% and 94.5% and 96.5% and 91.6%.
L929 RIPK3-/- reexpressing RIPK3 K51A/R69H; 3.125 µM, added: zVAD — survival: 104% and 90.4% and 91.1% and 102% and 93.5%.
For L929 RIPK3-/- reexpressing RIPK3 K51A/R69H; 1.563 µM, added: zVAD: survival read 102% and 87.8% and 91.6% and 90.1%.
The survival was 65.5% and 92.6% and 114% and 88.7% (L929 RIPK3-/- reexpressing RIPK3 K51A; 25 µM, added: zVAD).
For L929 RIPK3-/- reexpressing RIPK3 K51A/R69H; 12.5 µM, added: zVAD: survival read 99.1% and 96.4% and 94.7% and 95.9%.

Study 2
Target: DNA polymerase theta, ATPase domain (POLQ, Homo sapiens, UniProt O75417)
Sequence of UniProt O75417 (whole entry, unmodified, looked up): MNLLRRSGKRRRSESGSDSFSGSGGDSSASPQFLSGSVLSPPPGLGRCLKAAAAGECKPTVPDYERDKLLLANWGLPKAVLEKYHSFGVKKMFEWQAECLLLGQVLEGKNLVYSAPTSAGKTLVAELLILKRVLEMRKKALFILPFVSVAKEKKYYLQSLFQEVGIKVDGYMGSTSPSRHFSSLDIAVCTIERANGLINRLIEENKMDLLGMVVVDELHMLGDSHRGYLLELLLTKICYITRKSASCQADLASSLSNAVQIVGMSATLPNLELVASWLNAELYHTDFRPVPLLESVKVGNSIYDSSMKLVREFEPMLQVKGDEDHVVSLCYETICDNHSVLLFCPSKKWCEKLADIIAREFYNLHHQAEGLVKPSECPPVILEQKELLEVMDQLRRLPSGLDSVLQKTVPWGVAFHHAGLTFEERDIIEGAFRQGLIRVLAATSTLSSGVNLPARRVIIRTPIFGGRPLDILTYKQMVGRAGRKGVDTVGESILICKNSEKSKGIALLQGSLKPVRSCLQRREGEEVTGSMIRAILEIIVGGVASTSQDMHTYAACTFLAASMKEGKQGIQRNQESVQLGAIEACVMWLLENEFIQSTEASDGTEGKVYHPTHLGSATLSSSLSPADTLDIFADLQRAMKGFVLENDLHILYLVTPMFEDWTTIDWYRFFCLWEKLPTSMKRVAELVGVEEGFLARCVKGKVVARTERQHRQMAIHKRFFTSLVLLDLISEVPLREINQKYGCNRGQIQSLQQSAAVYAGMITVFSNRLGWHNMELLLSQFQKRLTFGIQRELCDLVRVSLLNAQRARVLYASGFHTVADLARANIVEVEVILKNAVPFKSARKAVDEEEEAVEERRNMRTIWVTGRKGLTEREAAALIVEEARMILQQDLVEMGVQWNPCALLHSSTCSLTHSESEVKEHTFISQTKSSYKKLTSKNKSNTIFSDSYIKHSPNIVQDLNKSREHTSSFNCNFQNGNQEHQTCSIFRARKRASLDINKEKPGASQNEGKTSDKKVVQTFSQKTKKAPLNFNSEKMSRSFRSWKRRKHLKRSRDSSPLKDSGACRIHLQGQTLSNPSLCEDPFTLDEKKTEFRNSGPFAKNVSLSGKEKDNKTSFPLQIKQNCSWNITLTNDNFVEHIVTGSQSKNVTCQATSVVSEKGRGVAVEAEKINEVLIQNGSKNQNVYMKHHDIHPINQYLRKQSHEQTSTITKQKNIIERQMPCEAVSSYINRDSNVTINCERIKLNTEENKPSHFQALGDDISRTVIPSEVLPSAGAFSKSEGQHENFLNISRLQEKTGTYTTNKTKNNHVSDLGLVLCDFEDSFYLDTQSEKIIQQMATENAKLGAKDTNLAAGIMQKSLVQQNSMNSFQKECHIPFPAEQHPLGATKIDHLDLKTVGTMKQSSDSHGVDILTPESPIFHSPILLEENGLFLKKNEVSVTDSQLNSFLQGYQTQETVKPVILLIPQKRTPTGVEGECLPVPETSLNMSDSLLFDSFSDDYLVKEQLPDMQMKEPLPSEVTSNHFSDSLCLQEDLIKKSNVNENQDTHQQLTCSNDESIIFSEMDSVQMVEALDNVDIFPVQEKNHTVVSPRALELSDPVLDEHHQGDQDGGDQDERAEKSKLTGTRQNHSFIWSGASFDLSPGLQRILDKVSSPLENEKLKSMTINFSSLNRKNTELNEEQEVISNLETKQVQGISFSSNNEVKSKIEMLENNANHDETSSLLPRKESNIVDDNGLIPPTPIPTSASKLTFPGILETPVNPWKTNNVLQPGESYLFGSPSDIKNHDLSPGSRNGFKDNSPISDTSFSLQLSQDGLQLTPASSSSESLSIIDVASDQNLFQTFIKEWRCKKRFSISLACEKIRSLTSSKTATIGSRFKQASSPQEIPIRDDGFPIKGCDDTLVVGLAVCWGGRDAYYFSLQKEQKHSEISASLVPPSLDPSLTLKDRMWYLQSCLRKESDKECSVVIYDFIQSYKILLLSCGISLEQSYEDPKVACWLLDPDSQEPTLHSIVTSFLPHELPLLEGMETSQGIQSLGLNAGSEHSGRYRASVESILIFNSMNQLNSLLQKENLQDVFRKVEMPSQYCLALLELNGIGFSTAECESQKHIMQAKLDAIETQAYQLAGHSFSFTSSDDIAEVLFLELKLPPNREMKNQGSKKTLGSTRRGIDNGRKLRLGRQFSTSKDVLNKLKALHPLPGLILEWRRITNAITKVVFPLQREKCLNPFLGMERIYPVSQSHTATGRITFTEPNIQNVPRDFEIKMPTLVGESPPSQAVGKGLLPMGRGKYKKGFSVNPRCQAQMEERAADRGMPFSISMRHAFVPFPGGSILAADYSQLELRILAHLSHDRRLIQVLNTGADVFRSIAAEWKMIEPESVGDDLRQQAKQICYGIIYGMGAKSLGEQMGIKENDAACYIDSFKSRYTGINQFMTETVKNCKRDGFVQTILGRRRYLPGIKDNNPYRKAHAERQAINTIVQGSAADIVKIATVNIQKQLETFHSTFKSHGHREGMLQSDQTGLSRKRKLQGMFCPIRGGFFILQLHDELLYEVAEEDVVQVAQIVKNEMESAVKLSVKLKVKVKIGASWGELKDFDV
Effect on: enzyme activity
Action: inhibitor
Concentration: 77 µM
Baseline: untreated
The remaining activity of COc1ccccc1N1CCNCC1 is reported as 98.2%.
With COC[C@H]1OC(=O)c2coc3c2[C@@]1(C)C1=C(C3=O)C2CCC(=O)[C@@]2(C)C[C@H]1OC(C)=O (stereo partly drawn) the remaining activity was 95.9%.
The remaining activity of COc1ccc(CN2CCNCC2)c(OC)c1OC is reported as 98.7%.
With O=c1[nH]oc2c1CCNC2 the remaining activity was 98.7%.
C/C=C(\C)C(=O)N[C@@H](c1ccccc1)[C@@H](O)C(=O)O[C@H]1C[C@@]2(O)[C@@H](OC(=O)c3ccccc3)[C@@H]3[C@]4(OC(C)=O)CO[C@@H]4C[C@H](O)[C@@]3(C)C(=O)[C@H](OC(C)=O)C(=C1C)C2(C)C has a remaining activity of 102%.

Further values, each from its own experiment
O=C(NCc1ncc(C(F)(F)F)cc1Cl)c1ccc2c(c1)C1(CCS(=O)(=O)CC1)[C@@H](C1CC1)N2S(=O)(=O)c1ccc(F)cc1 has a remaining binding of 96% (BRAF (Homo sapiens, UniProt P15056); cell-free assay, competition with immobilised ligand; 1 µM).
COC(=O)[C@@H]1[C@@H](c2ccccc2)[C@]2(c3ccc(OC)cc3)Oc3cc(OC)cc(OC)c3[C@@]1(O)[C@H]2O: “fluorescence polarization change” 6.5 mP (EIF4A1 (Homo sapiens, UniProt P60842); RNA clamping, fluorescence polarization; concentration not given, mean of two replicates, added: FAM-labelled poly r(AG)8 RNA).
